Assay results from different studies.
Protocols differ between the studies behind these lines. Numbers after ± are the reported error.

Structure (SMILES)	cell line	assay	setting	CC50
C[N+](C)(C)c1ccc(C2NC(c3ccc([N+](C)(C)C)cc3)C34c5c6c7c8c9c%10c(c%11c%12c3c3c5c5c%13c6c6c7c7c9c9c%14c%10c%10c%11c%11c%12c%12c3c3c5c5c%13c%13c6c6c7c9c7c9c%14c%10c%10c%11c%11c%12c3c3c5c5c%13c6c7c6c9c%10c%11c3c56)C824)cc1 (centres unmarked)	Ramos	cell growth or viability	24 h	18.8 µM
O=c1ccn([C@@H]2O[C@H](CO)[C@@H](O)[C@H]2F)c(=O)[nH]1	COLO 205	sulforhodamine B	11 days, galactose medium	> 250 µM
CN(C)S(=O)(=O)c1cc(O)c(O)c2c1CN(Cc1ccc(F)c(Cl)c1)C2=O	HOS	ATPlite	48 h	6.6 ± 0.4 µM
CCCC[n+]1cccc(C2NC(C(=O)OCC)C34c5c6c7c8c9c%10c(c%11c%12c3c3c5c5c%13c6c6c7c7c9c9c%14c%10c%10c%11c%11c%12c%12c3c3c5c5c%13c%13c6c6c7c9c7c9c%14c%10c%10c%11c%11c%12c3c3c5c5c%13c6c7c6c9c%10c%11c3c56)C824)c1 (centres unmarked)	Ramos	cell growth or viability	24 h	> 25 µM
OC[C@H]1[C@@H](O)[C@@H](O)CN1Cc1ccc(Br)cc1	MRC-5	MTS	72 h	> 200 µM
OC[C@H]1O[C@@H](n2cnc3c(O)ncnc32)[C@H](F)[C@@H]1O	COLO 205	sulforhodamine B	11 days, galactose medium	109 µM
CCC(NC(=O)CN1C(=O)N/C(=C\c2ccc(C)cc2)C1=O)C(=O)OC (centres unmarked)	PMA-differentiated THP-1, Leishmania-infected	resazurin	72 h	40.9 ± 8.96 µM
Nc1ncnc2c1ncn2[C@@H]1O[C@H](CO)[C@@H](O)[C@H]1F	COLO 205	sulforhodamine B	11 days, glucose medium	121 µM
COc1ccc(S(=O)(=O)O)cc1N=Nc1c(S(=O)(=O)O)cc2cc(NCc3nc(CNc4cc(C)c(N=Nc5cc(S(=O)(=O)O)cc6cc(S(=O)(=O)O)cc(O)c56)cc4OC)nc(Nc4ccccc4)n3)ccc2c1O	CEMx174 5.25M7		3 days	450 ± 33 µM
COC(=O)CCC(NC(=O)C1OC(OC2C(OC3CCC4(C)C(CCC5(C)C4C(=O)C=C4C6CC(C)(C(=O)NC(CCC(=O)OC)C(=O)OC)CCC6(C)CCC45C)C3(C)C)OC(C(=O)NC(CCC(=O)OC)C(=O)OC)C(O)C2O)C(O)C(O)C1O)C(=O)OC (centres unmarked)	Raji	cell growth or viability, MTT	72 h	> 8000 µM
O=C1c2ccc(O)c(O)c2C(=O)N1Cc1cccc(Cl)c1F	HOS	ATPlite	48 h	5.1 ± 0.6 µM
COC(=O)C1(C)CCC2(C)CCC3(C)C(=CC(=O)C4C5(C)CCC(OC6OC(C(=O)NN)C(O)C(O)C6OC6OC(C(=O)NN)C(O)C(O)C6O)C(C)(C)C5CCC43C)C2C1 (centres unmarked)	Raji	cell growth or viability, MTT	72 h	> 8000 µM
CCOC(=O)C1NC(c2ccc[n+](C)c2)C23c4c5c6c7c8c9c(c%10c%11c2c2c4c4c%12c5c5c6c6c8c8c%13c9c9c%10c%10c%11c%11c2c2c4c4c%12c%12c5c5c6c8c6c8c%13c9c9c%10c%10c%11c2c2c4c4c%12c5c6c5c8c9c%10c2c45)C713 (centres unmarked)	Ramos	cell growth or viability	24 h	36.9 µM
Nc1ccn([C@@H]2O[C@H](CO)[C@@H](O)[C@H]2F)c(=O)n1	COLO 205	sulforhodamine B	11 days, glucose medium	40 µM
COc1ccc(CN2C[C@H](O)[C@H](O)[C@@H]2CO)cc1	MRC-5	MTS	72 h	> 200 µM
CC(C)CC(C)n1ccn2cc(C(=O)NCc3ccc(F)cc3F)c(=O)c(O)c2c1=O (centres unmarked)	HOS	cell growth or viability	48 h	> 250 µM
CCc1c(CC2CCCCC2)nc(SCC(=O)c2ccccc2)[nH]c1=O	C8166		3 days	> 200 µM
CCOC(=O)C(CC)NC(=O)CN1C(=O)S/C(=C\c2ccc(C)cc2)C1=O (centres unmarked)	PMA-differentiated THP-1, Leishmania-infected	resazurin	72 h	> 100 µM
COC(=O)C(CCC(=O)O)NC(=O)C1OC(OC2C(OC3CCC4(C)C(CCC5(C)C4C(=O)C=C4C6CC(C)(C(=O)O)CCC6(C)CCC45C)C3(C)C)OC(C(=O)NC(CCC(=O)O)C(=O)OC)C(O)C2O)C(O)C(O)C1O (centres unmarked)	Raji	cell growth or viability, MTT	72 h	4000 µM
CCN(CC)CCCC(C)Nc1cc[n+]([Ru-]([OH2+])[OH2+])c2cc(Cl)ccc12.Cc1ccc(C(C)C)cc1.F[B-](F)(F)F.F[B-](F)(F)F (centres unmarked)	SUP-T1	cytotoxicity		54 µM

For quick reference, copied from above:
Structure (SMILES)	cell line	assay	setting	CC50
OC[C@H]1O[C@@H](n2cnc3c(O)ncnc32)[C@H](F)[C@@H]1O	COLO 205	sulforhodamine B	11 days, galactose medium	109 µM
